Results gathered from unrelated publications.
Compare with care: the assays were run in different laboratories. ± marks the error that the study gave.
rep papain-like protease: Replicase polyprotein 1ab, papain-like protease (rep, Severe acute respiratory syndrome-related coronavirus, UniProt P0C6X7)
nanI: Sialidase (nanI, Clostridium perfringens, UniProt A0A0H2YQR1)
Polyprotein P1234 nsP2 protease domain: Polyprotein P1234, nsP2 protease domain (Chikungunya virus, UniProt Q5XXP4)
Chain of UniProt Q5XXP4 (whole entry, looked up): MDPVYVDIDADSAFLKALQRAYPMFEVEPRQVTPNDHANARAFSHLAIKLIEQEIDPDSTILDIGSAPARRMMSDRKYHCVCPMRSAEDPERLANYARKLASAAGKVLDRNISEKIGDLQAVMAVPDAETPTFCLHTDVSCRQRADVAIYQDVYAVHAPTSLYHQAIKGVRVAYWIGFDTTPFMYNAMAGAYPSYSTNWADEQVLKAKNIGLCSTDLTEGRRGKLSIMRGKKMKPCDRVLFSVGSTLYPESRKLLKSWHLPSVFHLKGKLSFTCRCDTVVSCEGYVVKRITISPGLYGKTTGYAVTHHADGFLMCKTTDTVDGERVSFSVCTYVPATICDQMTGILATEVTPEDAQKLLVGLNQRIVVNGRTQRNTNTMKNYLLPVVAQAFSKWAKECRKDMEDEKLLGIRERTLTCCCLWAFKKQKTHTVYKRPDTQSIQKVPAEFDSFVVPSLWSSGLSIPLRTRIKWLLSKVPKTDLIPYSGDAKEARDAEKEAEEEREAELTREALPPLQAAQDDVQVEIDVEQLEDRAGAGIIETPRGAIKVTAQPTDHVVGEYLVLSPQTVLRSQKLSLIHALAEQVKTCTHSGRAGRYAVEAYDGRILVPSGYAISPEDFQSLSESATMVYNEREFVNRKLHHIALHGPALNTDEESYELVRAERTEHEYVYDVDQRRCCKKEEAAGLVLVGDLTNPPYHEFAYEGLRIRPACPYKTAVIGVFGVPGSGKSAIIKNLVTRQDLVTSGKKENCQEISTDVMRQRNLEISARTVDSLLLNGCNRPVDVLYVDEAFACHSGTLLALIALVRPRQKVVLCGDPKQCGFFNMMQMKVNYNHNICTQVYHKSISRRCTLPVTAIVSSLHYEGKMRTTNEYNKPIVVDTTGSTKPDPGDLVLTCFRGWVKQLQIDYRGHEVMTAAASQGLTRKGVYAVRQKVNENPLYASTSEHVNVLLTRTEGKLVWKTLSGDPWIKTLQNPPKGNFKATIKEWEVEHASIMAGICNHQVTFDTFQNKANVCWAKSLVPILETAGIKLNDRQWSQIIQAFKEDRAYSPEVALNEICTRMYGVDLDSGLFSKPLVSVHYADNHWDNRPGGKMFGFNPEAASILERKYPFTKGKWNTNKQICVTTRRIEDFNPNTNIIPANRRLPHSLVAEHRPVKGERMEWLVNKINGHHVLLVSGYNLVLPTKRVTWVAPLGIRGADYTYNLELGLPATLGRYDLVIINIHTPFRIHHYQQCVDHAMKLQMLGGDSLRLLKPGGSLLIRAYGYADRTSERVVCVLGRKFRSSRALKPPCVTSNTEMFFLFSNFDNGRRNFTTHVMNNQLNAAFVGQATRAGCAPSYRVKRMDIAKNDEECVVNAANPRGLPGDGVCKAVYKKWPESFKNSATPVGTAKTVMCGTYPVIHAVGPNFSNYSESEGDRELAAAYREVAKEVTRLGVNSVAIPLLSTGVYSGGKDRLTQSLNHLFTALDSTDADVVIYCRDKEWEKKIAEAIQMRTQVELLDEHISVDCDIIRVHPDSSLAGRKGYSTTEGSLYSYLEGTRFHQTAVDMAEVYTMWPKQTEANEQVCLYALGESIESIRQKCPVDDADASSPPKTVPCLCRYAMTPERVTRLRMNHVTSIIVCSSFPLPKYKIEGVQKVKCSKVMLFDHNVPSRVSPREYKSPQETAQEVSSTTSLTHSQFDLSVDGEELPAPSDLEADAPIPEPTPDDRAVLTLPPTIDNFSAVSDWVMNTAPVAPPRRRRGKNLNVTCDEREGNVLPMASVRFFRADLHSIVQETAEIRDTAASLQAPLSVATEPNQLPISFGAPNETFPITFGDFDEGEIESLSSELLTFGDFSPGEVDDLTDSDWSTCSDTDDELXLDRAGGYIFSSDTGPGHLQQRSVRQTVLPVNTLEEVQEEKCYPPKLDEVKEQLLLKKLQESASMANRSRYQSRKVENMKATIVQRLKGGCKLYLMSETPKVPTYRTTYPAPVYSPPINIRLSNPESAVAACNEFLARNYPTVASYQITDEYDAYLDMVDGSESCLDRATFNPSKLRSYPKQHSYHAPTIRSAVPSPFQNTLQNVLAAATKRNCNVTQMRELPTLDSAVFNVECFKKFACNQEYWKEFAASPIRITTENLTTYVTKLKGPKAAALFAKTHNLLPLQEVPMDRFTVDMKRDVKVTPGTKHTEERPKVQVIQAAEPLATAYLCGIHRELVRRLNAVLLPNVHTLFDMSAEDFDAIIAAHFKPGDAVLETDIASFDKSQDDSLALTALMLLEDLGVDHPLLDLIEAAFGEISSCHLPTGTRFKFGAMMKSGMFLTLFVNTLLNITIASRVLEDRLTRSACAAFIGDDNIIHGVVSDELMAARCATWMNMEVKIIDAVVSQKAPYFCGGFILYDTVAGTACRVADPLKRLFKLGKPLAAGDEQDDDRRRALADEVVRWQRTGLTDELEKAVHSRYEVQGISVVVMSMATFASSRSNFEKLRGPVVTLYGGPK
Polyprotein P1234 nsP2: Polyprotein P1234, nsP2 (Chikungunya virus, UniProt Q8JUX6)
Chain of UniProt Q8JUX6 (whole entry, looked up): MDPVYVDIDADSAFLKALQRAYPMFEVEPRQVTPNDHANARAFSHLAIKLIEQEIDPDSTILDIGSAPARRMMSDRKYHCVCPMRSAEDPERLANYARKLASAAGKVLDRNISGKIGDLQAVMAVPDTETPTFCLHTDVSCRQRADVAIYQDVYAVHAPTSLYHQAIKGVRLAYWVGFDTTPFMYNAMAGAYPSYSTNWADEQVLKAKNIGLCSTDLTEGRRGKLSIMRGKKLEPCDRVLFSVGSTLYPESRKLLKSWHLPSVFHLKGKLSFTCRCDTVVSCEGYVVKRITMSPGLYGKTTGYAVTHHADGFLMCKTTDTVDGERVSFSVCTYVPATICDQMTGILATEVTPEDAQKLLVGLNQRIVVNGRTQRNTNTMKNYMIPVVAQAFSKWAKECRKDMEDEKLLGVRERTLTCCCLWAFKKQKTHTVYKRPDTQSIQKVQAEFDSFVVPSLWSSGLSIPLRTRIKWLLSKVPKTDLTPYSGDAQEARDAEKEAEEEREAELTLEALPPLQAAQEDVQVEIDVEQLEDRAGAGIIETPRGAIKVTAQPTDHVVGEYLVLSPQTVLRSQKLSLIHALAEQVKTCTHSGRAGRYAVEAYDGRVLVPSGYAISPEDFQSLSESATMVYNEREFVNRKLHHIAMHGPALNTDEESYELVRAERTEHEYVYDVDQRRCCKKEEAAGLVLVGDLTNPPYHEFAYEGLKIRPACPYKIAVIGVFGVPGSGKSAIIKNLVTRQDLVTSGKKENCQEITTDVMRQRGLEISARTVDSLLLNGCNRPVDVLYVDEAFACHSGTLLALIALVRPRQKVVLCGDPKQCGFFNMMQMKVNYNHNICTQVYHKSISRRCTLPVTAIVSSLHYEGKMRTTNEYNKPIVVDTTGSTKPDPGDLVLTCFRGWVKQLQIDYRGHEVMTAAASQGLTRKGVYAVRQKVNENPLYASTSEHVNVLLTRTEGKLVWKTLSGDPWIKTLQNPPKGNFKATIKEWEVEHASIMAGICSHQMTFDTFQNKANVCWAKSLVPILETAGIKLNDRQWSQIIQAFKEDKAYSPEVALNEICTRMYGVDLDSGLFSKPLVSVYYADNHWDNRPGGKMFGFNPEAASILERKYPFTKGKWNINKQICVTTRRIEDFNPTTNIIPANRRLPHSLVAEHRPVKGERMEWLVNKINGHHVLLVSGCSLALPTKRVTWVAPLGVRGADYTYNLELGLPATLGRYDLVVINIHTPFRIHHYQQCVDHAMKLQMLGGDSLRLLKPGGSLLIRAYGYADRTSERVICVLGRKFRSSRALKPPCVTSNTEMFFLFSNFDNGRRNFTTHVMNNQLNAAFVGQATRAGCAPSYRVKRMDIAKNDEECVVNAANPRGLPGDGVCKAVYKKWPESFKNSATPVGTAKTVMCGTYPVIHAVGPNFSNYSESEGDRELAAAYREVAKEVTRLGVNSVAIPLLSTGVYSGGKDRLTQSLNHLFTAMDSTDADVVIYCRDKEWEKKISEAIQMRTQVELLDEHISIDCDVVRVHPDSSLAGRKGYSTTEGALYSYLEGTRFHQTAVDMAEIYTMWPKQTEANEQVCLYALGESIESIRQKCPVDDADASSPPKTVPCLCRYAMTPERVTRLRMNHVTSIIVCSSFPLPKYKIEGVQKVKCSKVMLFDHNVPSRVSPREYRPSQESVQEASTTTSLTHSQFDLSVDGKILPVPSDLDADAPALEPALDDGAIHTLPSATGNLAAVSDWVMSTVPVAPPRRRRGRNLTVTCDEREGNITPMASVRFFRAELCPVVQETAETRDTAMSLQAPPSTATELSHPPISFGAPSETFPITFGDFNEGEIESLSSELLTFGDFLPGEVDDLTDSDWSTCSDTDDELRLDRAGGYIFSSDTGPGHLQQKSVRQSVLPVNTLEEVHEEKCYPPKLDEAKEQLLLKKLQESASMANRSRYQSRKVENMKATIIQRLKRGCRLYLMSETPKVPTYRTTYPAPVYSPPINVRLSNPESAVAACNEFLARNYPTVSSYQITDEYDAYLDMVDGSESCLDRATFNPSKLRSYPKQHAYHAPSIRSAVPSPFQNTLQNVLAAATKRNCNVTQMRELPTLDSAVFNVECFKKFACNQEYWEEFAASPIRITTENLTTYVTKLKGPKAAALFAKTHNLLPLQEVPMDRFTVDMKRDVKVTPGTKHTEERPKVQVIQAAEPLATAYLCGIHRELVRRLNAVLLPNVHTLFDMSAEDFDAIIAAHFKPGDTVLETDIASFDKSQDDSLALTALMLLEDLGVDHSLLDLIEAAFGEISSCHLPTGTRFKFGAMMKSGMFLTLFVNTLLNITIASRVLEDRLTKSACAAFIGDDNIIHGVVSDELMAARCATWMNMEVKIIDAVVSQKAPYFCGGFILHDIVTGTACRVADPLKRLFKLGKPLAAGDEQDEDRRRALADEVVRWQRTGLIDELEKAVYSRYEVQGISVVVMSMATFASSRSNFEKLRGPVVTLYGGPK
HLA class I histocompatibility antigen, B alpha chain: HLA class I histocompatibility antigen, B alpha chain (Homo sapiens, UniProt P01889)
Chain of UniProt A0A7H0DNC1 (whole entry, looked up): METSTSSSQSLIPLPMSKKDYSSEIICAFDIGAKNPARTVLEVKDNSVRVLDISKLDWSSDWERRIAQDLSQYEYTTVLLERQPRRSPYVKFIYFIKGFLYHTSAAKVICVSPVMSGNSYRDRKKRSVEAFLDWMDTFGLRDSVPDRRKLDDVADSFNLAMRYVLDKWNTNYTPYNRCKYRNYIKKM

CCC(C(=O)Nc1ccccc1OC)n1c(SCc2ccc(F)cc2)nc2ncccc21 (stereo not shown)
IC50 (rep papain-like protease; enzyme activity): > 20000 nM

Cc1cn([C@H]2[C@H]([C@H](O)[C@H](O)CO)OC(C(=O)O)=C[C@@H]2O)nn1
IC50 (nanI; enzyme activity, inhibitor): 70000 nM

CCC(C(=O)Nc1cc(NC2CCOCC2)ccc1C)n1cccc2nc(SCc3ccc(F)cc3)nc1-2 (stereo not shown)
IC50 (rep papain-like protease; enzyme activity): 463 ± 115 nM

CC(C)[C@H](N)C(=O)N[C@H](C(=O)N[C@@H](CC(=O)O)C(=O)N[C@H](C(=O)N[C@@H](CC(N)=O)C(=O)N[C@@H](CCCCN)C(=O)N[C@@H](Cc1ccccc1)C(=O)N[C@@H](CC(=O)O)C(=O)N[C@@H](CC(N)=O)C(=O)N[C@@H](Cc1ccc(O)cc1)C(=O)O)[C@@H](C)O)[C@@H](C)O
IC50 (HLA class I histocompatibility antigen, A alpha chain, allele A*30:02 (Homo sapiens, UniProt P04439); biochemical): 256 nM

oseltamivir carboxylate
IC50 (neuraminidase (Influenza A virus, UniProt W8NQL2); enzyme activity, inhibitor; A(H5N8); mean over viruses): 0.29 ± 0.08 nM

CC(C)C[C@H](NC(=O)[C@H](CCC(=O)O)NC(=O)[C@@H](N)CO)C(=O)N1CCC[C@H]1C(=O)N[C@@H](CC(=O)O)C(=O)N[C@@H](Cc1ccccc1)C(=O)N[C@@H](C)C(=O)N[C@@H](CS)C(=O)N[C@@H](CO)C(=O)O
IC50 (HLA class I histocompatibility antigen, B alpha chain, allele B*44:03 (Homo sapiens, UniProt P01889); biochemical): 3530 nM

CCCCCCCC/C=C\CCCCCCCCNC(=O)CP(=O)(O)O
IC50 (Glycerol-3-phosphate acyltransferase 3 (plsY3, Bacillus anthracis, UniProt Q81Y92); inhibitor): 80000 nM

CC[C@H](C)[C@H](NC(=O)[C@@H](NC(=O)[C@H](CC(=O)O)NC(=O)CNC(=O)CNC(=O)[C@H](CCCCN)NC(=O)[C@@H](N)CCCCN)C(C)C)C(=O)N[C@@H](CC(N)=O)C(=O)N[C@@H](Cc1ccc(O)cc1)C(=O)O
IC50 (HLA class I histocompatibility antigen, A alpha chain, allele A*11:01 (Homo sapiens, UniProt P04439); biochemical): 1270 nM

Cn1cnc(Cn2c(=O)[nH]/c(=N\c3cc4cn(C)nc4cc3Cl)n(Cc3cc(F)c(F)cc3F)c2=O)n1
IC50 (Cytochrome P450 2D6 (CYP2D6, Homo sapiens, UniProt P10635); inhibitor; human liver microsomes; 30 min preincubation, preincubation with NADPH, with: dextromethorphan 10 µM): > 100000 nM

CC[C@H](C)[C@H](NC(=O)[C@H](CC(=O)O)NC(=O)[C@@H](N)C(C)C)C(=O)N[C@@H](CC(N)=O)C(=O)N[C@@H](CCCNC(=N)N)C(=O)N[C@@H](CC(N)=O)C(=O)N[C@@H](CC(N)=O)C(=O)N[C@@H](CCCCN)C(=O)N[C@@H](Cc1ccccc1)C(=O)O
IC50 (HLA class I histocompatibility antigen, A alpha chain, allele A*23:01 (Homo sapiens, UniProt P04439); biochemical): 2260 nM

O=C(CCl)Nc1cc(C2CC2)nn1-c1ccccc1
IC50 (Polyprotein P1234 nsP2 protease domain; protease activity, inhibitor, FRET; 90 min, 30 min preincubation): 41000 ± 17000 nM

CCC(CC)[C@H](NC(C)=O)[C@@H]1[C@H](O)[C@@H](C(=O)O)C[C@H]1N=C(N)N
IC50 (Neuraminidase (Influenza A virus, UniProt Q3M0T6); human reference strains; mean): 0.13 ± 0.01 nM

O=C(N1CCC2(CC1)C[C@@H](CN1CCCCS1(=O)=O)CCO2)C1(c2ccccc2)CCCC1
IC50 (Polyprotein P1234 nsP2; nsP2 ATPase activity, inhibitor, ADP-Glo): > 100000 nM

CCC(C(=O)Nc1cc(NC2CCOCC2)ccc1C)n1cc(F)cc2nc(SCc3ccc(F)cc3)nc1-2 (stereo not shown)
IC50 (rep papain-like protease; enzyme activity): 809 ± 52 nM

CCN[C@H]1[C@H]([C@H](O)[C@H](O)CO)OC(C(=O)O)=C[C@@H]1O
IC50 (nanI; enzyme activity, inhibitor): > 500000 nM

O=c1c(-c2ccccc2)c(O)c2cc(-c3cccc(-c4ccccc4)c3)cnc2n1O
IC50 (Resolvase OPG149 (OPG149, Monkeypox virus, UniProt A0A7H0DNC1)): 335 nM

COc1cc(Nc2ncc(F)c(Nc3ccc4c(n3)NC(=O)C(C)(C)O4)n2)cc(OC)c1OC
IC50 (Neuronal acetylcholine receptor subunit alpha-7 (CHRNA7, Homo sapiens, UniProt P36544)): > 10000 nM

CSc1ccc(CN(C)C(=O)CCl)cc1
IC50 (Polyprotein P1234 nsP2 protease domain; protease activity, inhibitor, FRET; 90 min, 30 min preincubation): 49000 ± 7000 nM

CC(C)[C@H](NC(=O)[C@@H]1CCCN1C(=O)[C@H](CCC(=O)O)NC(=O)[C@H](CCCCN)NC(=O)[C@H](CO)NC(=O)[C@H](CC(=O)O)NC(=O)CNC(=O)[C@@H](N)Cc1ccccc1)C(=O)N1CCC[C@H]1C(=O)N[C@@H](Cc1ccc(O)cc1)C(=O)O
IC50 (HLA class I histocompatibility antigen, A alpha chain, allele A*29:02 (Homo sapiens, UniProt P04439); biochemical): 564 nM

CC(C)(C)NC(=O)N[C@H](C(=O)N1C[C@H]2[C@@H]([C@H]1C(=O)NC(CC1CCC1)C(=O)C(N)=O)C2(C)C)C(C)(C)C (stereo partly shown)
IC50 (Cathepsin B (CTSB, Homo sapiens, UniProt P07858); inhibitor): 3040 nM

C=CC(=O)N1CCCC1C(C)(C)C(=O)O (stereo not shown)
IC50 (Polyprotein P1234 nsP2 protease domain; protease activity, inhibitor, FRET; 90 min, 30 min preincubation): 140000 ± 111000 nM

CC[C@H](C)[C@H](NC(=O)[C@H](Cc1c[nH]c2ccccc12)NC(=O)[C@@H](N)C(C)C)C(=O)N[C@@H](CC(N)=O)C(=O)N[C@@H](CC(N)=O)C(=O)N[C@@H](CO)C(=O)N[C@@H](Cc1c[nH]c2ccccc12)C(=O)N[C@@H](CCCCN)C(=O)N[C@@H](Cc1ccccc1)C(=O)O
IC50 (HLA class I histocompatibility antigen, A alpha chain, allele A*24:02 (Homo sapiens, UniProt P04439); biochemical): 6.4 nM

CC[C@H](C)[C@H](NC(=O)[C@@H](NC(=O)[C@@H](N)CCCNC(=N)N)[C@@H](C)O)C(=O)N[C@@H](CCCCN)C(=O)N[C@H](C(=O)N[C@@H](Cc1ccccc1)C(=O)N[C@H](C(=O)N[C@H](C(=O)N[C@H](C(=O)O)C(C)C)[C@@H](C)O)[C@@H](C)O)C(C)C
IC50 (HLA class I histocompatibility antigen, B alpha chain; binding, competitor): 19300 nM

C=CC(=O)N1CCC(CC(=O)O)C(F)(F)CC1 (stereo not shown)
IC50 (Polyprotein P1234 nsP2 protease domain; protease activity, inhibitor, FRET; 90 min, 30 min preincubation): > 200000 nM

CCCC(C(=O)Nc1cc(NC2CCNC2)ccc1C)n1cccc2nc(SCc3ccc(F)cc3)nc1-2 (stereo not shown)
IC50 (rep papain-like protease; enzyme activity): 638 ± 352 nM

CC(C)C[C@H](NC(=O)[C@H](CCC(=O)O)NC(=O)[C@H](CCCNC(=N)N)NC(=O)[C@@H](NC(=O)[C@@H](NC(=O)CNC(=O)[C@H](CO)NC(=O)[C@H](CO)NC(=O)[C@@H](N)Cc1c[nH]cn1)C(C)C)[C@@H](C)O)C(=O)O
IC50 (HLA class I histocompatibility antigen, B alpha chain; binding, competitor): 7760 nM

CCCCCC(=O)N(C)[C@H]1[C@H]([C@H](O)[C@H](O)CO)OC(C(=O)O)=C[C@@H]1O
IC50 (nanI; enzyme activity, inhibitor): > 500000 nM

Cc1nc(N2CCOCC2)sc1C(=O)NNC(=O)CCl
IC50 (Polyprotein P1234 nsP2 protease domain; protease activity, inhibitor, FRET; 90 min, 30 min preincubation): 65000 ± 50000 nM

CC(C)C[C@H](NC(=O)[C@H](CCC(=O)O)NC(=O)[C@H](CS)NC(=O)[C@H](Cc1ccc(O)cc1)NC(=O)[C@H](CO)NC(=O)[C@H](CCCCN)NC(=O)[C@H](CO)NC(=O)[C@H](CCC(=O)O)NC(=O)CN)C(=O)O
IC50 (HLA class I histocompatibility antigen, B alpha chain, allele B*40:01 (Homo sapiens, UniProt P01889); biochemical): 27 nM

C=CC(=O)N1CCC2(CC1)CC(C(=O)O)CO2 (stereo not shown)
IC50 (Polyprotein P1234 nsP2 protease domain; protease activity, inhibitor, FRET; 90 min, 30 min preincubation): 41000 ± 24000 nM

CCC(C(=O)Nc1cc(NC2CNC2)ccc1C)n1cc(Br)cc2nc(SCc3ccc(F)cc3)nc1-2 (stereo not shown)
IC50 (rep papain-like protease; enzyme activity): 87 ± 19 nM

CCC(CC)[C@H](NC(C)=O)[C@@H]1[C@H](O)[C@@H](C(=O)O)C[C@H]1N=C(N)N
IC50 (neuraminidase (Influenza A virus, UniProt A0A088CBR8)): 0.28 nM

CCC(CC)O[C@@H]1C=C(C(=O)O)C[C@H](N)[C@H]1NC(C)=O
IC50 (Neuraminidase (Influenza A virus, UniProt G9HX50); enzyme activity, inhibitor; swine influenza A virus, H3N2): 0.15 ± 0.01 nM

SVASQSIIAY
response magnitude per positive donor (AIM; peptide, CD8+ T cells from PBMC, human donors; dose not given): 107

CCC(C(=O)Nc1cc(NC2CCNC2)ccc1C)n1cc(Cl)cc2nc(SCc3ccc(F)cc3)nc1-2 (stereo not shown)
IC50 (rep papain-like protease; enzyme activity): 109 ± 35 nM

CC[C@H](C)[C@H](NC(=O)[C@H](CCC(=O)O)NC(=O)[C@H](CCCCN)NC(=O)[C@H](CC(C)C)NC(=O)[C@H](CC(=O)O)NC(=O)[C@@H](NC(=O)[C@H](Cc1ccc(O)cc1)NC(=O)[C@H](CO)NC(=O)[C@H](CCC(=O)O)NC(=O)[C@H](CCC(=O)O)NC(=O)[C@H](CC(C)C)NC(=O)[C@H](CCCCN)NC(=O)[C@H](CCCCN)NC(=O)[C@@H](NC(=O)[C@H](C)NC(=O)[C@H](CCC(=O)O)NC(=O)[C@H](CCC(=O)O)NC(=O)[C@H](CC(C)C)NC(=O)[C@H](CCCCN)NC(=O)[C@H](CCCCN)NC(=O)[C@H](CCSC)NC(=O)[C@H](CCC(=O)O)NC(=O)[C@H](Cc1ccc(O)cc1)NC(=O)[C@H](CCC(=O)O)NC(=O)[C@H](CC(C)C)NC(=O)[C@H](CC(=O)O)NC(=O)[C@H](CC(C)C)NC(=O)[C@H](Cc1ccccc1)NC(=O)[C@@H](NC(=O)[C@@H](NC(=O)[C@H](CC(N)=O)NC(=O)[C@@H](NC(=O)[C@H](CCC(N)=O)NC(=O)[C@H](CC(=O)O)NC(=O)[C@H](CC(C)C)NC(=O)[C@@H](N)CO)[C@@H](C)CC)C(C)C)[C@@H](C)O)[C@@H](C)CC)[C@@H](C)CC)C(=O)O
IC50 (Spike glycoprotein (S, Human coronavirus 229E, UniProt P15423)): 320 ± 30 nM

CCC(C(=O)Nc1cc(NC2CNC2)ccc1C)n1cccc2nc(SCc3ccc(F)cc3)nc1-2 (stereo not shown)
IC50 (rep papain-like protease; enzyme activity): 129 ± 32 nM

O=C(N1CCC2(CC1)C[C@H](CN1CCCCS1(=O)=O)CCO2)C1(c2cc(F)cc(F)c2)CCCC1
IC50 (Polyprotein P1234 nsP2; nsP2 RNA unwinding, inhibitor, FRET strand separation): 850 nM

COc1cc2c3cc1Oc1cc(ccc1O)C[C@@H]1c4c(cc(OC)c(O)c4Oc4ccc(cc4)C[C@@H]3N(C)CC2)CC[N+]1(C)C
IC50 (Chrnd/Chrna1/Chrne (Mus musculus, UniProt P02716+P04756+P20782); endplate current peak height, inhibitor, two-electrode voltage clamp; mouse hemidiaphragm; -80 mV, paraoxon treated, with: alpha-bungarotoxin 5 µg i.v. pretreatment): 109 nM

CCC(C(=O)Nc1ccccc1C)n1cccc2nc(S)nc1-2 (stereo not shown)
IC50 (rep papain-like protease; enzyme activity): > 20000 nM

Repeated from above:
C=CC(=O)N1CCC(CC(=O)O)C(F)(F)CC1 (stereo not shown)
IC50 (Polyprotein P1234 nsP2 protease domain; protease activity, inhibitor, FRET; 90 min, 30 min preincubation): > 200000 nM

CCC(CC)[C@H](NC(C)=O)[C@@H]1[C@H](O)[C@@H](C(=O)O)C[C@H]1N=C(N)N
IC50 (Neuraminidase (Influenza A virus, UniProt Q3M0T6); human reference strains; mean): 0.13 ± 0.01 nM

O=C(N1CCC2(CC1)C[C@@H](CN1CCCCS1(=O)=O)CCO2)C1(c2ccccc2)CCCC1
IC50 (Polyprotein P1234 nsP2; nsP2 ATPase activity, inhibitor, ADP-Glo): > 100000 nM

CC(C)[C@H](NC(=O)[C@@H]1CCCN1C(=O)[C@H](CCC(=O)O)NC(=O)[C@H](CCCCN)NC(=O)[C@H](CO)NC(=O)[C@H](CC(=O)O)NC(=O)CNC(=O)[C@@H](N)Cc1ccccc1)C(=O)N1CCC[C@H]1C(=O)N[C@@H](Cc1ccc(O)cc1)C(=O)O
IC50 (HLA class I histocompatibility antigen, A alpha chain, allele A*29:02 (Homo sapiens, UniProt P04439); biochemical): 564 nM
